Measurements gathered from unrelated publications.
Compare with care: the assays were run in different laboratories. ± gives the spread as reported. Converted amounts (≈) assume the structure as drawn.

Compound	organism	test	test system	conditions	scale	measurement	result
CC(=O)N[C@H](CCCCN)C(=O)N[C@H](CC(C)C)C(=O)N[C@H](CCCCN)C(=O)N[C@H](CO)C(=O)N[C@H](CC(C)C)C(=O)N[C@H](CC(C)C)C(=O)N[C@H](CCCCN)C(=O)N[C@@H](C(=O)N[C@H](CC(C)C)C(=O)N[C@H](CO)C(=O)N[C@H](CCCCN)C(=O)N[C@H](C)C(=O)N[C@H](CCCCN)C(=O)N[C@H](CCCCN)C(=O)N[C@H](CCCCN)C(=O)N[C@H](CC(C)C)C(=O)N[C@H](CC(C)C)C(=O)N[C@H](CCCCN)C(=O)N[C@@H](C(=O)N[C@H](C)C(=O)N[C@H](CC(C)C)C(=O)N[C@H](CCCCN)C(=O)N[C@H](C)C(=O)N[C@H](CC(C)C)C(=O)N[C@H](CO)C(=O)N[C@H](CCCCN)C(N)=O)[C@H](C)O)[C@H](C)O	Acinetobacter baumannii	–	11 isolates	–	–	MIC geometric mean	0.5 µM (≈ 1.46 µg/mL)
CCn1c(SCCCN2C(=O)c3ccccc3C2=O)nc2cc3ccccc3cc2c1=O	coxsackievirus B4	plaque	BGM	concentration not given, non-toxic dose	–	virus titre reduction	20 ± 3%
CCOC(=O)C1=C(C)NC2=C(C(=O)CC(C)(C)C2)C1c1ccc(OCC(=O)NN=Cc2cc(Br)c(O)c(Br)c2)cc1OCC(=O)NN=Cc1cc(Br)c(O)c(Br)c1 (stereo not shown)	Proteus vulgaris	–	–	concentration not given, 24 h, 37 °C	–	inhibition zone diameter	5.6 ± 0.1 mm
CC[C@@H](C)[C@@H](NC(=O)[C@@H](C)N)C(=O)N[C@H](CCCCN)C(=O)N[C@@H](C(=O)N[C@H](CCCNC(=N)N)C(=O)N[C@H](CCCCN)C(=O)N[C@H](CC(C)C)C(=O)N[C@H](Cc1ccccc1)C(=O)N[C@H](CCCCN)C(=O)N[C@H](CCCCN)C(=O)N[C@H](CC(C)C)C(=O)N[C@H](CC(C)C)C(=O)N[C@H](CCCNC(=N)N)C(N)=O)[C@H](C)CC	Escherichia coli	checkerboard	ATCC 25922	unit not given, with: 10-N-nonyl acridine orange	lower = stronger synergy	FICI	0.375
Cc1ncc([N+](=O)[O-])n1CCOCc1nnc(SCC(=O)c2ccc(O)cc2)o1	Streptococcus pyogenes	–	DMSO	60 µg/mL, 24 h, 37 °C	–	inhibition zone diameter	10 to 15 mm
CCCCCCCCCC(=O)N[C@@H](Cc1c[nH]c2ccccc12)C(=O)N[C@H](CC(N)=O)C(=O)N[C@@H](CC(=O)O)C(=O)N[C@@H]1C(=O)NCC(=O)N[C@@H](CCCNC(=O)OC2/C=C/CCCCC2)C(=O)N[C@@H](CC(=O)O)C(=O)N[C@H](C)C(=O)N[C@@H](CC(=O)O)C(=O)NCC(=O)N[C@H](CO)C(=O)N[C@@H]([C@H](C)CC(=O)O)C(=O)N[C@@H](CC(=O)c2ccccc2N)C(=O)O[C@@H]1C (stereo partly shown)	Staphylococcus aureus	isothermal microcalorimetry	MRSA	0.5 µg/mL, UG gel	–	time to detection	4 h
COc1ccc(-c2nc(-c3ccccc3OC)[nH]c2-c2ccc(OC)cc2)cc1	Schistosoma mansoni	–	mature male and female worms	50 µM, 96 h	–	worm killing	0%
CCCCSC[C@H]1CN(Cc2c[nH]c3c(N)ncnc23)C[C@@H]1O	Helicobacter pylori	growth	horse blood agar	–	–	IC90	~10 ng/mL (≈ 0.0298 µM)
CC=C(C)C(=O)OC1CC2C(C=C(C)C3C(OC(C)=O)CC(=O)C13C)OC(=O)C2C (stereo not shown)	Helicobacter pylori	broth microdilution	–	concentration not given	–	antibacterial activity	inactive
CCCCCCC[C@@H](CC(=O)O)OC(=O)C[C@@H](CCCCCCC)O[C@@H]1O[C@@H](C)[C@H](O)[C@@H](O)[C@H]1O	Aliivibrio fischeri	bioluminescence reduction, Microtox	–	30 min	–	EC50	56400 ± 15200 nM
CC1(CCCCCCCCCCOCCCOP(=O)(O)CO[C@H](CO)Cn2ccc(N)nc2=O)COC1	human gammaherpesvirus 8	qPCR	BCBL-1	7 days	–	EC50	530 ± 420 nM
CC(C)=CCC1CC(=O)C(C)=CC2C=C(C)CC(c3ccccc3)C2C(=O)C2=C(O)C(C)(CC=C1C)C(=O)C(C)(C)C2=O (stereo not shown)	human respiratory syncytial virus	immunofluorescence	HEp-2, A2	concentration not given, 48 h post-infection	–	RSV fusion protein expression	decreased
COc1ccc(-n2c(SCc3cccnc3)nnc2[C@H](Cc2ccccc2)NC(=O)Cc2c(C)[nH]c3ccccc23)cc1	HIV-2	HIV-2-induced cytopathicity, MTT	MT-4, wild type	–	–	EC50	4160 ± 1270 nM
CO[C@H]1/C=C/O[C@@]2(C)Oc3c(C)c(O)c4c(c3C2=O)C2=NC3(CCN(CC(C)C)CC3)NC2=C(NC(=O)/C(C)=C\C=C\[C@H](C)[C@H](O)[C@@H](C)[C@@H](O)[C@@H](C)[C@H](OC(=O)c2ccccc2-c2ccccc2)[C@@H]1C)C4=O	Mycobacteroides abscessus	–	ATCC 19977	–	relative to: wild type over arr deletion	MIC ratio	1.8
CC1(CCCCCCCCCCCCCCOCCCOP(=O)(O)CO[C@H](CO)Cn2ccc(N)nc2=O)COC1	human gammaherpesvirus 8	qPCR	BCBL-1	–	relative to: CC50 over EC50	selectivity index	> 1670
CCOC(=O)C1=C(C)NC2=C(C(=O)CC(C)(C)C2)C1c1ccc(OCC(=O)NN=Cc2cccc([N+](=O)[O-])c2)cc1OCC(=O)NN=Cc1cccc([N+](=O)[O-])c1 (stereo not shown)	Pseudomonas fluorescens	–	–	concentration not given, 24 h, 37 °C	–	inhibition zone diameter	5.3 ± 0.1 mm
CC(=O)OC[C@H]1O[C@@H](Sc2sc(C(=O)c3ccc(C)cc3)c(N)c2-c2nc3ccccc3s2)[C@H](OC(C)=O)[C@@H](OC(C)=O)[C@H]1OC(C)=O	coxsackievirus B4	plaque reduction	–	non-toxic dose NG, mean over three titres	–	viral reduction	50%

Compound	organism	test	test system	conditions	scale	measurement	result
CO[C@H]1/C=C/O[C@@]2(C)Oc3c(C)c(O)c4c(c3C2=O)C2=NC3(CCN(CC(C)C)CC3)NC2=C(NC(=O)/C(C)=C\C=C\[C@H](C)[C@H](O)[C@@H](C)[C@@H](O)[C@@H](C)[C@H](OC(=O)c2ccccc2)[C@@H]1C)C4=O	Mycobacteroides abscessus	–	ATCC 19977	–	relative to: rifabutin	MIC fold lower	20 fold
CC(C)(C)OC(=O)/C=C/c1ccc(O)c(C(=O)C(CCC(=O)OC(C)(C)C)CCC(=O)OC(C)(C)C)c1	Trypanosoma brucei rhodesiense	–	STIB900 bloodstream forms	–	relative to: L6 cell cytotoxicity over T. b. rhodesiense activity	selectivity index	65
Oc1c(Br)cc(Br)c2nc3c(C(F)(F)F)cc(C(F)(F)F)cc3nc12	Staphylococcus aureus	Calgary Biofilm Device	MRSA 1	–	–	MBEC	0.39 µM
C=C(CO)C(=O)O[C@H]1CC(=C)[C@@H]2C[C@H](O)[C@](O)(CCl)[C@@H]2[C@H]2OC(=O)C(=C)C12 (stereo partly shown)	Proteus vulgaris	–	–	concentration not given	–	inhibition zone	9 ± 1.3 mm
CNCc1ccc2c(c1)N(C(=O)OCC(O)CO)[C@H](CNC(=N)N)[C@H]2NC(=O)C(=O)Nc1ccc(Cl)c(F)c1 (stereo partly shown)	HIV-1 JR-FL pseudovirus	viral infection	Cf2Th-CD4/CCR5 cells	–	relative to: BNM-III-170	potency fold increase	2.5 fold
CC(C)(C)NCC(SS(=O)(=O)O)c1ccccc1 (stereo not shown)	Schistosoma mansoni	–	mice	oral, 100 mg/kg single dose, 42 days post-infection	relative to: vehicle	female worm burden reduction	83%
CCCCCCSC[C@H]1CN(Cc2c[nH]c3c(N)ncnc23)C[C@@H]1O	Helicobacter pylori	growth	horse blood agar 5%	–	–	IC90	4 to 8 ng/mL (≈ 0.011 to 0.022 µM)
O=C(Nc1ccccc1Nc1ccccc1)c1cccnc1C(F)(F)F	Valsa mali	mycelial growth, mycelial growth rate method	–	50 mg/L	–	inhibition	12.5%
c1ccc(-c2nc(-c3ccc4ccccc4c3)c[nH]2)cc1	Schistosoma mansoni	–	mature male and female worms	10 µM, 96 h	–	worm killing	0%
Nc1ccn(C[C@@H](CO)OCP(=O)(O)OCCCS(=O)(=O)CCCCCCCCCCC2CCC2)c(=O)n1	human gammaherpesvirus 8	qPCR	BCBL-1	7 days	–	EC50	20 ± 10 nM
C=CCSc1nnc([C@H](Cc2ccccc2)NC(=O)Cc2c(C)[nH]c3ccccc23)n1-c1ccc(OC)cc1	HIV-2	–	MT-4, wild type	–	relative to: CC50 over EC50	selectivity index	6
CCn1c(NN)nc2cc3ccccc3cc2c1=O	coxsackievirus B4	plaque	BGM	concentration not given, non-toxic dose	–	virus titre reduction	10 ± 1%
Cc1ccc2ccc3ccc(C)nc3c2n1.Cc1ccc2ccc3ccc(C)nc3c2n1.O.[Cl-].[Cl-].[Cl-].[Yb+3]	Enterococcus faecium	bacterial growth	–	–	–	inoculation time	48 h
CN[C@@H]1[C@H](O)[C@H](NC)[C@H]2O[C@]3(O)[C@H](O[C@@H]2[C@H]1O)O[C@H](C)C[C@@]3(O)CNCCc1ccc(C)cc1	Mycobacteroides abscessus	LC-MS/MS, refers to: intracellular compound	ATCC 19977	100 µM, 30 min	relative to: compound over spectinomycin	intracellular accumulation ratio	13.2 fold
CNCc1ccc2c(c1)N(C(=O)OC)[C@H](CNC(=N)N)[C@H]2NC(=O)C(=O)Nc1ccc(Cl)c(F)c1	HIV-1 JR-FL pseudovirus	viral infection	Cf2Th-CD4/CCR5 cells	–	relative to: BNM-III-170	potency fold increase	2.5 fold
COc1ccc(-n2c(SCc3ccc(S(N)(=O)=O)cc3)nnc2[C@H](Cc2ccccc2)NC(=O)Cc2c(C)[nH]c3ccccc23)cc1	HIV-2	–	MT-4, wild type	–	relative to: CC50 over EC50	selectivity index	> 55
CN[C@H](CC(C)C)C(=O)N[C@H]1C(=O)N[C@@H](CC(N)=O)C(=O)N[C@H]2C(=O)N[C@H]3C(=O)N[C@H](C(=O)N[C@H](C(=O)O)c4cc(O)cc(O)c4-c4cc3ccc4O)[C@H](O)c3ccc(c(Cl)c3)Oc3cc2cc(c3O[C@@H]2O[C@H](CO)[C@@H](O)[C@H](O)[C@H]2O[C@H]2C[C@](C)(NCc3ccc(C(=O)OCCCCCCN(Cc4ccccn4)Cc4ccccn4)cc3)[C@H](O)[C@H](C)O2)Oc2ccc(cc2Cl)[C@H]1O	Bacillus subtilis	protein synthesis, refers to: YtrE.1	168	concentration not given, 10 min, at peak effective concentration	relative to: untreated	regulation factor	140 ± 40.5

For quick reference, copied from above:
Compound	organism	test	test system	conditions	scale	measurement	result
COc1ccc(-c2nc(-c3ccccc3OC)[nH]c2-c2ccc(OC)cc2)cc1	Schistosoma mansoni	–	mature male and female worms	50 µM, 96 h	–	worm killing	0%
O=C(Nc1ccccc1Nc1ccccc1)c1cccnc1C(F)(F)F	Valsa mali	mycelial growth, mycelial growth rate method	–	50 mg/L	–	inhibition	12.5%
CO[C@H]1/C=C/O[C@@]2(C)Oc3c(C)c(O)c4c(c3C2=O)C2=NC3(CCN(CC(C)C)CC3)NC2=C(NC(=O)/C(C)=C\C=C\[C@H](C)[C@H](O)[C@@H](C)[C@@H](O)[C@@H](C)[C@H](OC(=O)c2ccccc2)[C@@H]1C)C4=O	Mycobacteroides abscessus	–	ATCC 19977	–	relative to: rifabutin	MIC fold lower	20 fold
